Measured values from different studies.
A part holds a random share of what one study measured.

Set 1
Target: RNA binding protein fox-1 homolog 2, RRM domain, GST-SBP tag (RBFOX2, Homo sapiens, UniProt O43251-10, residues 100-194)
Method: RNA Bind-n-Seq
Molecule type: RNA
Medium: in vitro
Concentration: 365 nM
Notes: natural RNA segment, single round, ends assumed
Baseline: no-protein control
Direction: higher = stronger binding
Constant ends, left off below: GGGAGUUCUACAGUCCGACGAUC … UGGAAUUCUCGGGUGCCAA
Construct (chain): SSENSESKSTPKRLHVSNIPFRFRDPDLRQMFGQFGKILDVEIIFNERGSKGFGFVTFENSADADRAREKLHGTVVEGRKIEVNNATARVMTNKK
Oligonucleotide | RBNS enrichment (R)
CGGUGCAGCUGAGGUUCCCGACACCAGAAGCUGUUGGGAGAAAGCAAUACGUUUGUGCAGAAUCUCUAUGUAUAUUCUAUUUUAUUAAAUUAAUUGAAUCUAGUAUAUGC | 0.939
CAUUGAUGGCAAUUUGAAUGUGGGUAUUACUCUGUGAGCCACCCUGCUUCGCUUGUUUGUAAGGAGAAAUGCAUCUGGUUAUGUGAAUUUCCCGAGAGCAGCAGACAUGG | 0.913
UUUAGAAGUGAGCCCCUCUAAUGCCAAGGGAGCGGCUCUGUGCCCAGGAACCCAAGGGGAGGCUAGGAUCCCCUUGGGGAAAUCCAGGUAGCAUCAGGUAUUGACAGGGA | 1.33
CCUAAGCCACAGCGACGCCUAUGUCAUUCGGAUCUGGGCUCCCCAAACGAGGACACGACGGCCAAGGUGGCAGUUUGUCCCACGGGAGGACAGUCGUUUCUUUUCCAGCC | 0.366
AUGGAAAUUAUAUCUUGUGACCGUCUUCAAGUGCAUGGACUUAAAAUUCAUGAGAGACUAAAUGUGAGGGAGAGGUGGAUUUAAAGAGGCCAGACCUUAACCAAAGAUGC | 0.618
CUUGAAAGGUGAUUGGCAAAGUCAUGCAGGCCCGCCUUAAAGCGCUGAUUAGAACAGUCCAACACAGUCCGACCUCACUCAAUACCCACAACCAUCGAAAAUGGAUUCUU | 0.659
CAUUCCUAUCCUUCCUGGUACUGCAGUCAACCAAAGAUGGCAUGACUUACCUGCGCAGAUCUGGAAGCCUUGAACUCGGAGUGCUGACUCUGCUACAUGGUACAGCUACC | 0.813
ACCCAAGCUGGUGGGCAGGGGGCUGGAAGGCACCAGGCCUCAGGAGGAGCCCCAUAGUCCCGCCUGCAGCCUGUAACCAUCGGCUGGGCCCUGCAAGGCCCACACUCACG | 0.393
UUCCUCUCUGAGUCCCAGCUAUGGGGAACAUCUGGAGUCAGCAGAACCAUUGGGACCUGAGGCAGGAGUGUCACCUGCGGGAGAAGUCUGCCCGCUGCCCUCUGUCAUCC | 0.315
GGUAGAGUCCUGUAAAUGAAUGCUCUGGGCUAGAUACAGCUUGGAGAACCUGCUGGCCUUGUUAGACAGCACUUGGGCCUUUGCCAGCAGCAAGAGGUGAAGCGAAGCCA | 3.12
UGUGCAGACCUCGGGGUUGAGAACGGGGUGAAGAUGAAUGUCCUUAGUGUUGGUGCAGCACCAGCCUGGGCUCUGGGCUCCUCACCGAGACUCAGAGGCCACACUGAUUU | 0.469
GGCUUUUUUUUGUAGCCAGUCCUGUCCCUGGCCAUCCAUGUGAUGGUUUUGGAUGGAGUUAAACUUGAUGCCAGUGGGCAGUGCAUGUGGAAAGUAUCAGAGUAAGGCUC | 8.8

Set 2
Target: Centromere-binding protein 1, full length, N-terminal tag (CBF1, Saccharomyces cerevisiae, UniProt P17106, residues 1-351)
UniProt P17106, sequence (whole entry, looked up): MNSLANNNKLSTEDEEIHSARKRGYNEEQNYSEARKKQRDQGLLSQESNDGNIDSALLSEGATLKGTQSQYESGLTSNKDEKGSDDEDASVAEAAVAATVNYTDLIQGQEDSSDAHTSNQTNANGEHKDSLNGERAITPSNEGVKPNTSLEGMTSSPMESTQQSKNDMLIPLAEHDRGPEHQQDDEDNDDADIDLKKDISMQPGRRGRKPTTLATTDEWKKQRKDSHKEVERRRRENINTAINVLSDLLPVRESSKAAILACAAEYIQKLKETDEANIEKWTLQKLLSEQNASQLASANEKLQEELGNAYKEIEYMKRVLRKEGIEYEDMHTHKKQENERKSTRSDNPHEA
Method: protein-binding microarray
Molecule type: double-stranded DNA, one strand shown
Medium: in vitro
Concentration: 0.8 µM
Notes: whole 60-bp probe, no competitor
Direction: higher = stronger binding
Constant ends, left off below: … GTCTTGATTCGCTTGACGCTGCTG
Oligonucleotide | fluorescence intensity
GAACCTGCTTGAAAGCACATGATATCACCAGACTAG | 1290 a.u.
GAACATAATCTTGATAACGTGAAACAGTTTAACTAG | 776 a.u.
CTAATAACATAGGGACACGTTCAGGCAATTGTCTTC | 538 a.u.
CCTAACTACTATAGACTCACCTTATAGCTTCGTACA | 479 a.u.
CTATACACATACACATTCGTGCATACATTCATTTTC | 545 a.u.
GAAGCCGCTTTGTTCCTGATGTTCTCCATTTTTTAG | 499 a.u.
GAAGCAGGGGAGAATGTGGTGACGGCGGAGCCGTAG | 453 a.u.
GAACAGTACAAGATCCATGTGCATTACAACACATAG | 593 a.u.
GAAATGCTAGTATGTAGTGATGGCTGCATGGTATAG | 539 a.u.
GAAGAAGACGTCATACTCGTGGTTATATAATCTTAG | 611 a.u.
GAAAGTTACAATTTTCTCATCACCCCGAAACAATAG | 563 a.u.
GAAACCAATATATGTCATGAGAAGTGGCTTGTATAG | 537 a.u.
CTAAGTATTGTATCGCACGTTTCTTTTTTGTTTTTC | 662 a.u.
TGTACGAAGCTATACCACATGTGTATAGTAGTTAGG | 752 a.u.
GAAGCTCCTAAATGTCACCCTATAGAAAAAAAATAG | 631 a.u.
GAAATGTCAGATCGACGTGACATGTAACATTAGTAG | 721 a.u.
GAAATCTCAACTCGTCACCACACAAAAAAATGGTAG | 588 a.u.
TGTACGAAGCTATCTCTGATGACTATAGTAGTTAGG | 474 a.u.
CCTAACTACTATAACGTGCTTGCATAGCTTCGTACA | 715 a.u.
CTAAATTAACTTCATCATGATCATTAATTTCATTTC | 585 a.u.
GAATTATTATTTTGTCACACGTCTCCCTTGAATTAG | 678 a.u.
GAACACTTCTGCATTCTGGTGGTGAGGGTTCTGTAG | 519 a.u.
CCTAACTACTATATGCACGTTCTATAGCTTCGTACA | 587 a.u.
GAAGGCACAGGAAACCCCGTGCACTCTGCCACTTAG | 701 a.u.

Set 3
Target: Ras GTPase-activating protein-binding protein 1, RRM domain (G3BP1, Homo sapiens, UniProt Q13283)
UniProt Q13283, sequence (whole entry, looked up): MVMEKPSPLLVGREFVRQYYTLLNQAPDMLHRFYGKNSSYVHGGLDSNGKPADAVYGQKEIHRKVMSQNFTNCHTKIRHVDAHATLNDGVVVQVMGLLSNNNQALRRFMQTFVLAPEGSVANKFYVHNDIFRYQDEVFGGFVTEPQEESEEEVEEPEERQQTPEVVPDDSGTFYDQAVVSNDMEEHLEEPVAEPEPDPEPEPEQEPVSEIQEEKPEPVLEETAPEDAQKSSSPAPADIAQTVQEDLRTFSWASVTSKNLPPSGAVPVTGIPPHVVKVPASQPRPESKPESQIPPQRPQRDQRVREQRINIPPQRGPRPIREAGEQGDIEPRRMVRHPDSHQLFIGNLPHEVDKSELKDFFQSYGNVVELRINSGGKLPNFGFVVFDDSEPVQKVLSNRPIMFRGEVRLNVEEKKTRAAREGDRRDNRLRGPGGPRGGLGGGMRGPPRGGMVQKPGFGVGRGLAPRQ
Method: RNA Bind-n-Seq
Molecule type: RNA
Medium: in vitro
Concentration: 1 µM
Notes: whole 134-nt RNA, ends assumed
Together with: 150 mM KCl
Baseline: input library
Direction: higher = stronger binding
Constant ends, left off below: GGGAGUUCUACAGUCCGACGAUC … UGGAAUUCUCGGGUGUCAAGG
Oligonucleotide | log2 enrichment
ACCAUGCAGGUGCGCAUCUUUGGGAAGUGGGGCAAGGGGGGGAUAGGGAGGGGGGUAACACUUUGGGAACAGGUGGUCCCAGGUCGUUUC | -0.465
UCAAGUCCUGUGCUACACAUCGUAUGUACCGAAUCGGGAGGGAAAAAGGGAGGGAAAGUAUUAUGUUACGCCGUUCGGAUCUGCACUUCC | 0.846
AAGUCCUGUGCUACACAUCGUAUGUACCGAAUCGGGGAAAGGGGAGGGGAAAGGGGAAAGUAUUAUGUUACGCCGUUCGGAUCUGCACUU | 1.11
GCCAUGCAGGUGGGCAUCUUUGGGAAGUGGGGCAAGGGGGGGAUAGGGAGGGGGGUAACACUUUGGGAACAGGUGGUCCCAGGUCGUUUC | -0.618
UCCUGUGCUACACAUCGUAUGUACCGAAUCGGGCCCCCCGGCCCCCCGGGGCCCCCCGGAAAGUAUUAUGUUACGCCGUUCGGAUCUGCA | -0.302
UAACUUUAGAGGAGGAUCUGAUGGAUAUGGCAGUGGACGUGGAUUUGGGGAUGGCUAUAAUGUGUAUGGAGGAGGACCUGGAGGUGGCAA | -0.395
AAGUCCUGUGCUACACAUCGUAUGUACCGAAUCGGGGAAAGGGGUUUGGGGUGGGGAAAGUAUUAUGUUACGCCGUUCGGAUCUGCACUU | 1.36
UCAAGUCCUGUGCUACACAUCGUAUGUACCGAAUCGGAAAAAGGAAAAAGGUGGAAAGUAUUAUGUUACGCCGUUCGGAUCUGCACUUCC | -0.0936
UAACUUUAGAGGAGGAUCUGAUGGAUCUGGCAGUGGACGUGGAUUUGGGGAUGGCUAUAAUGGGUAUGGAGGAGGACCUGGAGGUGGCAA | -0.8
UGGGAGGUGGAUUUUGUUUACUUUUUUAGCUCAUUUCCAGGGGUGGGAAUUUUUUUUUAAUAUGUGUCAUGAAUAAAGUUGUUUUUGAAA | 0.944
UUCUGACUCAGAAUGUGCCAAAAAGGCUUUGGAACAACUUAAUGGAUUUGAACUAGCAGGAAGACCAAUGAAAGUUGGUCAUGUUACUGA | -0.198
GUCCUGUGCUACACAUCGUAUGUACCGAAUCGGGGUGGGGUUUGGGGAAAAAAAGGGGAAAGUAUUAUGUUACGCCGUUCGGAUCUGCAC | 0.737
CCUCAAGUCCUGUGCUACACAUCGUAUGUACCGAAUCGGGUGGGUGGGGUGGAAAGUAUUAUGUUACGCCGUUCGGAUCUGCACUUCCAG | 0.185
UAACUUUAGAGGAGGAUCUGGUGGAUAUGGCAGUGGACGUGGAUUUGGGGAUGGCUAUAAUGGGUAUGGAGGAGGACCUGGAGGUGGCAA | -0.814

Set 4
Target: Histone acetyltransferase KAT6A, winged helix 2, GST fusion (KAT6A, Homo sapiens, UniProt Q92794, residues 85-181)
Method: protein binding microarray
Molecule type: double-stranded DNA, one strand shown
Medium: in vitro
Concentration: not given
Notes: 8-mer, flanks averaged, mean of 2 arrays, mostly near background
Baseline: not given
Direction: higher = stronger binding
Residues (chain): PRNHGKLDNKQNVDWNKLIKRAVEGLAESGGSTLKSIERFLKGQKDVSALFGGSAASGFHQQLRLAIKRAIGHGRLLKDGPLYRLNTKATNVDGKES
Oligonucleotide | E-score
ATTGTCCG | 0.0919
AGACCTCC | -0.0545
ACCAGCCC | 0.153
TCAGATAA | 0.0253
CCAGTTGA | -0.0191
AGCGAGGC | 0.0949
CGTCACCC | -0.0505
CAACCTAA | 0.134
ATGACATC | -0.0617
ACAAGCTA | -0.0906
TCACACAA | 0.0634
TAATGTGA | 0.0272
ACACACAC | -0.00466
CCGCCTCA | 0.203
TATTCAGA | 0.0425
AGGGTGAT | -0.0623
AGTAAGTC | -0.256
AAGCGTCT | -0.153
CCAGTGGC | 0.0675
CATTAGAA | 0.181
CTTTTAAC | -0.125
TGCAGAAA | 0.0549
